Measured values of several laboratories.
Numbered parts are unrelated; each lists some results of a single study.

Set 1
Target: Replicase polyprotein 1ab, polymerase (rep, Severe acute respiratory syndrome coronavirus 2, UniProt P0DTD1)
Effect on: enzyme activity
Action: inhibitor
Concentration: 20 µM
For `Cc1nnc2n1-c1sc(CCC(=O)N3CCOCC3)cc1C(c1ccccc1Cl)=NC2`, the inhibition was -0.8%.
For `O=C(c1ccc(F)c(F)c1Nc1ccc(I)cc1F)N1CC(O)([C@@H]2CCCCN2)C1`, the inhibition was -7.21%.
`COc1ccc(C(=O)N2CCCc3cc(C4=NNC(=O)SC4C)ccc32)cc1OC` (stereo not drawn) has an inhibition of 5.04%.
`O=C(NCCCNc1nc(Nc2cccc(NC(=O)N3CCCC3)c2)ncc1I)c1cccs1` gave an inhibition of 6.22%.
`CC(C)(C)[C@H]1CC[C@H](CC2=C(O)C(=O)c3ccccc3C2=O)CC1` has an inhibition of -4.15%.
`Cc1nc2ccc(-n3ncc(C(=O)c4cc5ccccc5[nH]4)c3N)cc2[nH]1` has an inhibition of -5.63%.
For `COc1cc(F)c(C(C)C)cc1-c1ccc(C(F)(F)F)cc1CN1C(=O)O[C@H](c2cc(C(F)(F)F)cc(C(F)(F)F)c2)[C@@H]1C`, the inhibition was 1.29%.
For `O=C(O)c1ccccc1Nc1cccc(OCc2ccc3ccccc3n2)c1`, the inhibition was 1.9%.
With `CC(C)OC(=O)N1CCC(Oc2ncnc3c2cnn3-c2ccc(S(C)(=O)=O)cc2F)CC1` the inhibition was -5.34%.
`C[C@@H](O[C@H]1OCCN(Cc2n[nH]nc2CN(C)C)[C@H]1c1ccc(F)cc1)c1cc(C(F)(F)F)cc(C(F)(F)F)c1` has an inhibition of 1.55%.
The inhibition of `CCCCCCCCCCCCCCCCCC(=O)OC[C@@H](O)[C@H]1OC[C@H](O)[C@H]1O` is reported as -11.2%.
`COc1cc2ncnc(Nc3ccc(Oc4ccccc4)cc3)c2cc1OC` gave an inhibition of -5.41%.
The inhibition of `CCN(CC)Cc1ccc(C(=O)N(CCc2ccccc2OC)[C@@H]2CCNC2)cc1` is reported as -4.19%.
With `Cc1cc(C)c2c(N)c(C(=O)NCc3ccc(Cl)cc3)sc2n1` the inhibition was 1%.
`COc1ccc(C(=O)NCc2ccc(OCCN(C)C)cc2)cc1OC` gave an inhibition of -9.82%.
`CC/C(=C(\c1ccc(O)cc1)c1ccc(OCCN(C)C)cc1)c1ccccc1` has an inhibition of -0.04%.
`CCOC(=O)c1cnc2c(cnn2CC)c1NN=C(C)C` has an inhibition of 1.35%.
With `Nc1ncn([C@@H]2O[C@H](CO)[C@@H](O)[C@H]2O)c(=O)n1` the inhibition was -8.1%.
With `Cc1cnc(C(=O)N[C@H]2CCCCC/C=C\[C@@H]3C[C@@]3(C(=O)NS(=O)(=O)C3CC3)NC(=O)[C@@H]3C[C@@H](Oc4nc5ccccc5c5ccccc45)CN3C2=O)cn1` the inhibition was 1.5%.
`Cc1cc(C)c(CNC(=O)c2cc(-c3ccc(N4CCN(C)CC4)nc3)cc3c2c(C)cn3C(C)C)c(=O)[nH]1` gave an inhibition of -1.04%.
With `c1ccc2c(Cc3c[nH]c4ccccc34)c[nH]c2c1` the inhibition was -1.79%.
`CNCCn1c(=O)c2cc(OC)c(OC)cc2c2cnc3cc4c(cc3c21)OCO4` has an inhibition of -4.44%.
The inhibition of `Cc1cc2ncc(C(=O)NCC(C)(C)NCC(=O)N3CCC[C@H]3C#N)cn2n1` is reported as 0.87%.
`Nc1c(CC(=O)O)cccc1C(=O)c1ccc(Br)cc1` gave an inhibition of -7.09%.
With `CC(C)(C)c1cc(C(C)(C)C)c(NC(=O)c2c[nH]c3ccccc3c2=O)cc1O` the inhibition was 1.85%.

Set 2
Cell line: HEK-293T
Effect on: pseudovirus infection
Method: FDA-approved drug library screen
Organism: VSV pseudotyped with SARS-CoV-2 spike
Concentration: 10 µM
Time: 16 h
Reference: vehicle-treated
The GFP-positive cells of `O=P(O)(O)C(O)(Cc1cccnc1)P(=O)(O)O` is reported as 106%.
`O=C(O)c1cc(-c2ccc(F)cc2F)ccc1O` has a GFP-positive cells of 95.2%.
With `CC(=O)S[C@@H]1CC2=CC(=O)CC[C@]2(C)[C@H]2CC[C@@]3(C)[C@@H](CC[C@@]34CCC(=O)O4)[C@H]12` the GFP-positive cells was 102%.
`CCCCNc1cc(C(=O)O)cc(S(N)(=O)=O)c1Oc1ccccc1` gave a GFP-positive cells of 90%.

Set 3
Target: Sal-like protein 4, full length isoform B (SALL4, Homo sapiens, UniProt Q9UJQ4-2, residues 1-616)
Method: universal PBM
Form: double-stranded DNA, one strand shown
Sample: in vitro
Concentration: not given
Notes: 8-mer, flanks averaged, mean of replicates
Direction: higher = stronger binding
`ACCAATTC` gave an E-score of 0.00939.
For `ACAGTGCA`, the E-score was -0.00513.
With `GGGAAACC` the E-score was -0.185.
The E-score of `CACCTGTA` is reported as 0.0305.
`GAGCGTTA` gave an E-score of -0.037.
`CCCATAAG` has an E-score of 0.012.
The E-score of `CAGCGGTA` is reported as -0.0392.
`AAATAAGT` has an E-score of 0.264.

Set 4
Target: Interferon regulatory factor 7, full length, phosphomimetic (IRF7, Homo sapiens, UniProt Q92985, residues 1-503, S101K/S471D/S472D/S475D/S476D/S477D/S483D/S484D/S487D)
Method: protein-binding microarray
Form: double-stranded DNA, one strand shown
Sample: in vitro
Concentration: 250 nM
Notes: 60-bp whole probe
Together with: salmon DNA 0.4 mg/ml
Reference: random background probes
Direction: higher = stronger binding
All sequences stand within: GCCTAGCAC … GTCTTGATTCGCTTGACGCTGCTG
Target sequence (chain): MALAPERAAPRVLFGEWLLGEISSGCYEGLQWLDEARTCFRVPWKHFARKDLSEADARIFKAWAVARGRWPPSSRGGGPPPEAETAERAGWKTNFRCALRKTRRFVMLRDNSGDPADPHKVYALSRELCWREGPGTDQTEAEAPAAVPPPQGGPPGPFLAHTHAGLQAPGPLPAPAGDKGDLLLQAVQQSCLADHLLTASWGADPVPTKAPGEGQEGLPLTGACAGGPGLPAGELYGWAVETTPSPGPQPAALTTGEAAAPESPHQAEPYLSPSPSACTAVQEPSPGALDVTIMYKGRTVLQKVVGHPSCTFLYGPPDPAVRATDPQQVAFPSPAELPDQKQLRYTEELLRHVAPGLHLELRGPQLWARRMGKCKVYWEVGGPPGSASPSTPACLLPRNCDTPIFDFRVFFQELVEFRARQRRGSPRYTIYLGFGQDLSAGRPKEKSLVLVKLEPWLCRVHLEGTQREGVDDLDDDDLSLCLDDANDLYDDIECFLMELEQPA
`TTAGGTCTCGGTATTGGTTAGTGCTAG` gave a log fluorescence of 1.87 z-score.
With `TCAGTACTTTCTATCTCACTGTGCTAG` the log fluorescence was 0.789 z-score.
For `TCATATACACTTATGACACTGTGCTAG`, the log fluorescence was 0.54 z-score.
With `TGCACTCTCTACATGTGTTTGTGCTAG` the log fluorescence was -0.143 z-score.
The log fluorescence of `GACGGATTGGGTATCGGGACGTGCTAG` is reported as -0.234 z-score.
The log fluorescence of `TCACATTGCTGCCCTCAGACTGTGCTA` is reported as 0.353 z-score.
For `GACGGTTTCCTTTCCCTCACGTGCTAG`, the log fluorescence was 4.66 z-score.
The log fluorescence of `TTAGGTTTCTGACTGGGTTAGTGCTAG` is reported as 0.921 z-score.

Set 5
Target: Replicase polyprotein 1ab, main protease (rep, Severe acute respiratory syndrome coronavirus 2, UniProt P0DTD1)
Effect on: enzyme activity
Action: inhibitor
Concentration: 20 µM
Notes: primary screen
For `CN[C@H](CC(C)C)C(=O)N[C@H]1C(=O)N[C@@H](CC(N)=O)C(=O)N[C@H]2C(=O)N[C@H]3C(=O)N[C@H](C(=O)N[C@H](C(=O)O)c4cc(O)cc(O)c4-c4cc3ccc4O)[C@H](O[C@H]3C[C@](C)(N)[C@@H](O)[C@H](C)O3)c3ccc(c(Cl)c3)Oc3cc2cc(c3O[C@@H]2O[C@H](CO)[C@@H](O)[C@H](O)[C@H]2O[C@H]2C[C@](C)(NCc3ccc(-c4ccc(Cl)cc4)cc3)[C@@H](O)[C@H](C)O2)Oc2ccc(cc2Cl)[C@H]1O`, the inhibition was 50.1%.
For `C=C1c2cccc(O)c2C(=O)C2C(=O)[C@]3(O)C(=O)C(C(N)=O)C(=O)[C@@H](N(C)C)[C@@H]3[C@@H](O)[C@H]12` (stereo partly drawn), the inhibition was 95.2%.
`CC(=O)Oc1ccccc1C(=O)Nc1ncc([N+](=O)[O-])s1` gave an inhibition of 113%.

Set 6
Target: Histone acetyltransferase KAT6A, winged helix 1, GST fusion (KAT6A, Homo sapiens, UniProt Q92794, residues 1-85)
Method: protein binding microarray
Form: double-stranded DNA, one strand shown
Sample: in vitro
Concentration: not given
Notes: 8-mer, flanks averaged, mean of 2 arrays, mostly near background
Reference: not given
Direction: higher = stronger binding
Residues (chain): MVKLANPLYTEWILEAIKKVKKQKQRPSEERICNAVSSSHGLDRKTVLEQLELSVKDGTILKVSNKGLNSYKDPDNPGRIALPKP
For `ACAAGTGC`, the E-score was -0.179.
The E-score of `AGGCAAAA` is reported as -0.136.
`GAGTTCCC` has an E-score of -0.0876.
With `AAGGAGGA` the E-score was -0.151.
`ATTTTAGG` gave an E-score of -0.153.
The E-score of `AATTGCGC` is reported as 0.356.
`ATTTTCCA` has an E-score of -0.12.
For `TCCTGTCA`, the E-score was -0.0905.

Further values, each from its own experiment
For `CTCGTGC`, the E-score was 0.449 (Microphthalmia-associated transcription factor, full length (MITF, Homo sapiens, UniProt O75030-10, residues 1-413); protein-binding microarray; double-stranded DNA, one strand shown, in vitro; not given, k-mer, scored over probes, only values ≥0.25; higher = stronger binding).

Some of these lines once more (set 1):
With `CC(C)OC(=O)N1CCC(Oc2ncnc3c2cnn3-c2ccc(S(C)(=O)=O)cc2F)CC1` the inhibition was -5.34%.
`C[C@@H](O[C@H]1OCCN(Cc2n[nH]nc2CN(C)C)[C@H]1c1ccc(F)cc1)c1cc(C(F)(F)F)cc(C(F)(F)F)c1` has an inhibition of 1.55%.
The inhibition of `CCCCCCCCCCCCCCCCCC(=O)OC[C@@H](O)[C@H]1OC[C@H](O)[C@H]1O` is reported as -11.2%.
`COc1cc2ncnc(Nc3ccc(Oc4ccccc4)cc3)c2cc1OC` gave an inhibition of -5.41%.
The inhibition of `CCN(CC)Cc1ccc(C(=O)N(CCc2ccccc2OC)[C@@H]2CCNC2)cc1` is reported as -4.19%.
With `Cc1cc(C)c2c(N)c(C(=O)NCc3ccc(Cl)cc3)sc2n1` the inhibition was 1%.
`COc1ccc(C(=O)NCc2ccc(OCCN(C)C)cc2)cc1OC` gave an inhibition of -9.82%.
`CC/C(=C(\c1ccc(O)cc1)c1ccc(OCCN(C)C)cc1)c1ccccc1` has an inhibition of -0.04%.
